Assay results collected from several papers.
± gives the spread as reported.

CC1(C)CC[C@]2(C(=O)O)CC[C@]3(C)C(=CC[C@@H]4[C@@]5(C)C[C@@H](O)[C@H](OC(=O)/C=C/c6ccc(O)cc6)C(C)(C)[C@@H]5CC[C@]43C)[C@@H]2C1 (relative stereo)
AUC(0-t) (C57BL/6 mice, brain; intraperitoneal, 85 µmol/kg single dose): 7.82 nmol·h/g

Cc1c(C(=O)O)ccc2c3n(nc12)[C@@H]1[C@H](C3)N(CC2CC2)[C@@]2(C(=O)Nc3cc(Cl)ccc32)[C@H]1c1cccc(Cl)c1F
AUC(0-t) (female BALB/c nude mice, SJSA-1 xenograft, plasma; oral, 1 mg/kg twice daily, 2 doses, mean): 24 µM·h

CN1CCC[C@H](CN2c3ccccc3Sc3ccccc32)C1.Cl
AUC(0-t) (ICR mice, fasted female, lymph node; oral, 16 mg/kg): 5700 ng·h/mL

CCN(c1cc(-c2ccc(CN3CCOCC3)cc2)cc(C(=O)NCc2c(C)cc(C)[nH]c2=O)c1C)C1CCOCC1
AUC(0-t) (female CB17 SCID mice, HT-1376 xenograft, plasma; 75 mg/kg, day 1): 23200 ng·h/mL

CC(C)(C)c1sc2ncnc(Oc3c(F)cccc3OC(F)(F)F)c2c1-c1ccc(Cl)cc1
AUC(0-t) (wild-type mice, plasma; oral, 30 mg/kg): 38000 ng·h/mL

CCN1CCN(Cc2ccc(NC(=O)c3ccc(C)c(NC(=O)c4cncc(-c5cccs5)c4)c3)cc2C(F)(F)F)CC1
AUC(0-t) (C57BL/6 mice, epithelial lining fluid; intraperitoneal, 15 mg/kg): 4640 ng·h/mL

CCc1nc(C(N)=O)c(Nc2ccc(N3CCC(N4CCN(C)CC4)CC3)c(OC)c2)nc1NC1CCOCC1
AUC(0-t) (female FVB mice, MATE1 knockout, plasma; oral, 10 mg/kg, single dose): 5480 ± 323 ng·h/mL

CCOC(=O)c1cc(Cl)cc(NC(=O)c2sc(Cl)cc2S(=O)(=O)N(C)c2ccc(OCC)c(OC)c2)c1
AUC(0-t) (male C57BL/6 mice, brain; intraperitoneal, 10 mg/kg): 13.7 ng·h/g

Cl.N=C(CC(O)c1cc2c(F)cc(F)cc2c2cc(C(F)(F)F)ccc12)Nc1ccc(Br)cc1 (stereo not shown)
AUC(0-t) (Plasmodium berghei-infected mice, whole blood dried spots; oral, 50 mg/kg, 0 to 24 h): 49000 ± 1770 ng·h/mL

COc1cc(C)[nH]c(=O)c1CN1CCc2c(Cl)cc([C@H](OC)C3COC3)c(Cl)c2C1=O
AUC(0-t) (female CB17 SCID mice, HT-1376 xenograft, plasma; 75 mg/kg, day 1): 3380 ng·h/mL

A few entries again:
CCOC(=O)c1cc(Cl)cc(NC(=O)c2sc(Cl)cc2S(=O)(=O)N(C)c2ccc(OCC)c(OC)c2)c1
AUC(0-t) (male C57BL/6 mice, brain; intraperitoneal, 10 mg/kg): 13.7 ng·h/g
